Experimental data of several laboratories.
Parts stem from different laboratories: compare values within a part only. Changes are numbered by the printed parent chain.

Sample 1
Target: CCNA1, cyclin fold, Cln2 fusion (human)
Technique: yeast growth competition, sequencing
Medium: yeast
Setting: weak parent motif
Baseline: not given
Reading: higher = stronger binding
Starting sequence: REPIN1 docking peptide (human); QSFRGWVALVLHL
Change	normalised enrichment score
QSFRGWAALVLHL [V7A]	0.388
ASFRGWVALVLHL [Q1A]	-0.469
QSARGWVALVLHL [F3A]	0.454
QSFAGWVALVLHL [R4A]	-0.532
QSFRGWVALVLHA [L13A]	0.273
QSFRGWVALVAHL [L11A]	-0.0897

Sample 2
Target: Histone acetyltransferase KAT6A, winged helix 2, GST fusion (KAT6A, Homo sapiens, UniProt Q92794, residues 85-181)
Technique: protein binding microarray
Form: double-stranded DNA, one strand shown
Medium: in vitro
Concentration: not given
Setting: 8-mer, flanks averaged, mean of 2 arrays, mostly near background
Baseline: not given
Reading: higher = stronger binding
Residues (chain): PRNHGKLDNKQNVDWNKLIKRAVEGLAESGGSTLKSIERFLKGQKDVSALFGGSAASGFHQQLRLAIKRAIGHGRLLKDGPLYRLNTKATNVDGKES
Oligonucleotide	E-score
AACGTGGT	-0.255
CGATTTGC	0.0421
AGGAACTA	-0.214
CTTACCTC	-0.105
CGAACACG	0.093
CCACCTGC	0.2
AGCCTCCG	0.0709
CTCACGGC	0.0962
AATGACGA	0.0273
AAACCTAA	-0.0791
CGGCCCAA	0.183
TCAGCCCA	0.0235
CGTCAGGA	-0.054
AACTCCCG	0.172
CCGAATCC	0.125
AGCTAAAA	0.0214
GTGTGCAA	-0.045
GGAGGTAC	-0.0926
CACCGCAG	-0.0563
GCATATCC	-0.0458
GTAGTGAC	-0.0528
AAACATGG	-0.0656
AGGATATC	-0.0917
CGTGTCCC	0.122
CCAATCGC	-0.0429

Sample 3
Target: RNA binding protein fox-1 homolog 2, RRM domain, GST-SBP tag (RBFOX2, Homo sapiens, UniProt O43251-10, residues 100-194)
Technique: RNA Bind-n-Seq
Form: RNA
Medium: in vitro
Concentration: 365 nM
Setting: natural RNA segment, single round, ends assumed
Baseline: no-protein control
Reading: higher = stronger binding
Shared flanks, not repeated: GGGAGUUCUACAGUCCGACGAUC … UGGAAUUCUCGGGUGCCAA
Construct (chain): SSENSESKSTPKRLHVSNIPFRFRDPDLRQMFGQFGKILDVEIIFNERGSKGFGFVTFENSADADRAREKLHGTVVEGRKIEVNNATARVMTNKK
Oligonucleotide	RBNS enrichment (R)
ACAUAGUUAUUCAGAUUUAGGACCAGUAAGGAUAGAACUUUCUCUUAUUUAUGAAAAAAAAUGCUAAUAAUUUUGGGGCAGUUUUUUCCUUUAAUUAUUUUUUUCAAUUU	1.64
CUACUCUACAGUGACUACCUGUGGGCCAGGCCAUCUAAACUGAGAGGGGGAAAGAUUCUACUUCAAAUCUUUAACAACAAGAGUGAUUCUGUUCAGCUGGGGUAGAGUGA	0.532
UAUUUAUCAAAACUGACUACUGGACCGGAGCCCAGAAACCAUGGGUCAAGUUACACGUGAAUUUGUUUUGUGAAGAAGGGAAGCUGGGGCAGGUAACACGCAGAGCCGCC	0.417
CCUACGUGACUGACUACAGUUGGUUUGGAGGCCCUGGACCUCUGUGGCGUCUUUGAAGCCUGGCCUCUUGGCUUCCUUUUGGACUUUGCUUGCUUUCAUUUGAAGUUUGG	0.515
CCACCUGGGAUAGCUAGAGCAUCCACACGUGGAAUUCUUUCUUUACUAACAAACGAUAGCUGAUUGAAGGCAACAGGAAAAAAAAAAUCAAAUUGUCCUACUGACGUUGA	0.891
GUUCCCAAUCAGCCAUUACCAUCUCCACCUGCCGCCAGCCACCAAAUCACCAGCAGGAGGGUCUGCCUGCCACUGGGAGCCUUGGGGAGGCUGGGAGCCUUAGAGAAACG	0.387
GCCCUGGGUGCCCACUGACACCGACCCCCAGGCAGAGGCCUUUGUCUUCAGCACUCCUGAGAAGUUGGCUCUUUACCCCUUCUCCUCUGCUGCCCCUCCUUCCUGCUGGU	0.349
GACAUGUCAACAAGAUACAUUCAUUUCUCCCGGAAUGUGUAUUGUUUUUAUUUUACAAAACAGAGAAACAACAAAAGGCUUGGAACUCCUUCAUUCUACGUGGAAUACUA	0.663
GAUUUUGAAUUCCAGAUUUCUUUAUAGGAGAUGUAUAAAAAGGAGUUUAUAGCAUACAAAAAUUAUACUGCUCUUCCCAGUAAGGGACUAAAAGGACAUUUGAAAUCUUU	0.904
GACCCAGGAGAGAGGUGCCCCUUGUGGGAGUUCCAUUCUGUGGCAUGCAACUGAGCAGGGUUAGGGAAACAGGUGUCAAGAAUGAAGAGAAUGGUUUUAUCUCCAAGGUG	9.06
CUAAUAUAGGCAGCAGACUGUUUUACGGGUUGCUGUUUUAACAUGGGUUUUUGUCAGAUCCAUGGUCUUAGGACUUGACUGAUGAGCUUUCAGUGAAGAAUCCUCUAAGA	0.314
UUCUAGUUCUUGGUUUCUCAUAGAUUUUUAAACUAUCUAAUUAGAGAACACUUUUGAUCCAUCACAGCAGGUCACCAGCCAUGACAAGGCUCAAUCUAGGACUCUCAGCU	0.329

Sample 4
Target: ABI1, truncated, D143A, DHFR fusion (Arabidopsis thaliana)
Technique: DHFR PCA, deep sequencing
Medium: yeast
Setting: methotrexate growth selection, single substitutions
With: (+)-ABA 200 µM
Baseline: wild-type fitted maximum
Reading: higher = stronger binding
Starting sequence: PYL1, truncated, DHFR fusion (Arabidopsis thaliana); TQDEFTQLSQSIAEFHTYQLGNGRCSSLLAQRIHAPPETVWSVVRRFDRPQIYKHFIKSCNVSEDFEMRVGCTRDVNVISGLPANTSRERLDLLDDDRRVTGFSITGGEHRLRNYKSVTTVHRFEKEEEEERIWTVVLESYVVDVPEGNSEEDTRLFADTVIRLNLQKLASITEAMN; partner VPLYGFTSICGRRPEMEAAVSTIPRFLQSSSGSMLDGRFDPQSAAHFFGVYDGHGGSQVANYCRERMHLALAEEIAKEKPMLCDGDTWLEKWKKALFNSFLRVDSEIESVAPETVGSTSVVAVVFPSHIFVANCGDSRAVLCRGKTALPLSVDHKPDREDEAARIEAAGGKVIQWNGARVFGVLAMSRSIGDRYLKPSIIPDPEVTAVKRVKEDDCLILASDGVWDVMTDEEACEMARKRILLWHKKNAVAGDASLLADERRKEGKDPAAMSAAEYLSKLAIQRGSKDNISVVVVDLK
Change	relative binding score [%]
R24S	95.2
T135Y	-0.432
S59L	72.5
L94T	44.9
E14H	99.5
V143R	-4.22
M176V	97
G107P	26.2
Y53T	42.8
G148L	72.5
E129S	110
H110I	-1.37
Q10I	87.9
E4C	92.5
V62D	16
S171C	94.3
Q51H	105

Sample 5
Target: Interferon regulatory factor 5, full length, phosphomimetic (IRF5, Homo sapiens, UniProt Q13568-2, residues 1-514, S451D/S453D/S456D/S462D)
Technique: protein-binding microarray
Form: double-stranded DNA, one strand shown
Medium: in vitro
Concentration: 940 nM top
Setting: 60-bp whole probe
With: salmon DNA 0.4 mg/ml
Baseline: random background probes
Reading: higher = stronger binding
Shared flanks, not repeated: GCCTAGCAC … GTCTTGATTCGCTTGACGCTGCTG
Oligonucleotide	fitted relative affinity
ATGTTTTTCATTTTGTTCATGTGCTAG	2.07 z-score
TCAACTTTCTACTTCTCACTGTGCTAG	2.19 z-score
CCCTGTCTGTCCAGAAACCCGTGCTAG	0.216 z-score
TTAGATCTCATACTGGATTAGTGCTAG	0.348 z-score
TTAGCTTTCGGTTTCGGTTAGTGCTAG	11.6 z-score
TGTCTTCCCCTCTCTTTCCAAGTGCTA	1.69 z-score
TTAGGTTTCCTTTTCCTGTAGTGCTAG	2.29 z-score
GACGATATCGGGTATGGAGACGTGCTA	0.0588 z-score
TTAGGTTCCCTTTCCCTTTAGTGCTAG	0.528 z-score
TTTGATTTCGGGTTTCGATTAGTGCTA	6.39 z-score
CTGTTTTTCTCACCACATTTTGTGCTA	2.05 z-score
TGAGGTCTCCTTTTCCTTTAGTGCTAG	0.394 z-score
GACGATTTCAGAGTGGAGACGTGCTAG	-0.443 z-score
GACGGTATCCTTCTCCTAACGTGCTAG	0.589 z-score
TTTTGAAGTTTGGCGTTGACGTGCTAG	-0.132 z-score
GACGGTATCGGACTGGGTACGTGCTAG	2.6 z-score
GACGGTCTCGGTATCGGGAAGTGCTAG	5.03 z-score
TCACATTTACATTTTAGACTGTGCTAG	0.816 z-score
GACGGTTTCGGTCTCAGGACGTGCTAG	13.5 z-score
ACTGCTCTGTTGCCTGGTCCTGTGCTA	0.42 z-score
TTTTCAGCATCGCTCAGCACGTGCTAG	0.383 z-score
TTAGGTCTCCTTATCCCTTAGTGCTAG	0.575 z-score
TTAGATGTCAGTCTCGATTAGTGCTAG	2.65 z-score
GACGGTCTGGACTATCGGGACGTGCTA	-0.442 z-score

A few entries again (sample 2):
Oligonucleotide	E-score
AAACCTAA	-0.0791
CGGCCCAA	0.183
TCAGCCCA	0.0235
CGTCAGGA	-0.054
AACTCCCG	0.172
CCGAATCC	0.125
